Measured values of several laboratories.
Organism: Pseudomonas aeruginosa

With CC(C)C[C@@H]1NC(=O)[C@H](CCCCN)NC(=O)CSC[C@@H](C(=O)N[C@@H](CCCCN)C(N)=O)NC(=O)[C@H](CC(C)C)NC(=O)[C@H](CC(C)C)NC(=O)[C@H](CC(C)C)NC(=O)[C@@H]2CSCC(=O)N[C@@H](CCCCN)C(=O)N[C@@H](CC(C)C)C(=O)N[C@@H](CCCCN)C(=O)N[C@@H](CCCCNC(=O)[C@H](CCCCN)NC1=O)C(=O)N[C@@H](CCCCN)C(=O)N[C@@H](CC(C)C)C(=O)N[C@@H](CC(C)C)C(=O)N2 the MIC was 32 µg/mL (PAO1; 18 h).
With Cc1ccc(C2OC(c3ccc(C)cc3)C(C)C(=NOCc3cn(-c4ccccc4)nn3)C2C)cc1 (stereo not shown) the MIC was 25 µg/mL (microbial growth, broth dilution; MTCC741; 24 h).
For CC[C@H](C)[C@@H]1NC(=O)CNC(=O)[C@H](CCCCN)NC(=O)[C@H](C)NC(=O)[C@H](CCC(=O)O)NC(=O)[C@H](Cc2ccccc2)NC(=O)[C@H](CO)NC(=O)[C@H](CC(C)C)NC(=O)[C@H](C(C)C)NC(=O)[C@H](CC(=O)O)NC(=O)[C@@H](NC(=O)[C@@H](NC(=O)[C@@H](N)C(C)C)[C@@H](C)O)CSSC[C@@H]2NC(=O)[C@H](CO)NC(=O)CNC(=O)CNC(=O)[C@H](CCCCN)NC(=O)[C@H](CCCCN)NC(=O)[C@H](CCCNC(=N)N)NC(=O)[C@H](CC(C)C)NC(=O)[C@H](C)NC(=O)[C@H]([C@@H](C)CC)NC(=O)[C@H](CSSC[C@@H](C(=O)N[C@@H](CCCNC(=N)N)C(=O)N[C@@H](CC(N)=O)C(=O)O)NC(=O)[C@H](C(C)C)NC(=O)[C@H](C)NC(=O)[C@H](C(C)C)NC(=O)CNC(=O)[C@H](CC(N)=O)NC(=O)[C@H](CCC(N)=O)NC2=O)NC(=O)[C@H](Cc2c[nH]cn2)NC(=O)[C@H](CC(C)C)NC(=O)[C@H](C)NC(=O)[C@H](C)NC(=O)[C@H](C)NC(=O)[C@H](CO)NC(=O)[C@H](Cc2c[nH]cn2)NC(=O)[C@H](CC(N)=O)NC(=O)[C@H](C(C)C)NC(=O)[C@H](C)NC1=O, the MIC was > 100 µM (broth microdilution; KCTC 1637; 16 h, 37 °C).
CCCCCCCCCCCC(=O)NCCCC[C@@H]1NC(=O)[C@H](CCCNC(=N)N)NC(=O)[C@H](CCCNC(=N)N)NC(=O)[C@H](CCCNC(=N)N)NC(=O)[C@H](CCCNC(=N)N)NC(=O)[C@H](CCCNC(=N)N)NC(=O)[C@H](CCCNC(=N)N)NC1=O gave an MIC of 156 µg/mL (broth microdilution; PAO1; 37 °C).
CCCCCCCC[C@H]1NC(=O)[C@H](CCN)NC(=O)[C@@H](NC(=O)[C@H](CCN)NC(=O)[C@@H](NC(=O)[C@H](CCN)NC(=O)c2ccc(-c3ccccc3)cc2)[C@@H](C)O)CCNC(=O)[C@H]([C@@H](C)O)NC(=O)[C@H](CCN)NC(=O)[C@H](CCN)NC(=O)[C@H](CC(C)C)NC1=O gave an MIC of 2 µg/mL (ATCC 27853, CaMHB; 18 h, 37 °C).
The MIC of CCCCCCCCCCCCCc1cc(O)cc(O)c1 is reported as > 64 µg/mL (broth microdilution; PAO1 chloramphenicol-resistant; 37 °C).
For CC(C)[C@H](NC(=O)[C@H](CCCCN)NC(=O)[C@H](CCCNC(=N)N)NC(=O)[C@@H](NC(=O)[C@H](C)NC(=O)[C@H](CC(N)=O)NC(=O)[C@H](CCCNC(=N)N)NC(=O)[C@@H](NC(=O)[C@H](CCCCN)NC(=O)[C@H](CCCCN)NC(=O)[C@@H](NC(=O)[C@@H](NC(=O)[C@H](CCCNC(=N)N)NC(=O)[C@H](CCCNC(=N)N)NC(=O)[C@H](Cc1c[nH]c2ccccc12)NC(=O)[C@H](Cc1c[nH]c2ccccc12)NC(=O)CN)[C@@H](C)O)C(C)C)C(C)C)C(C)C)C(=O)O, the MIC was 8 µg/mL (ATCC 27853; 18 h, 37 °C).
CC(C)C[C@H](NC(=O)[C@H](CC(C)C)NC(=O)[C@H](CCCCN)NC(=O)CNC(=O)[C@H](CC(C)C)NC(=O)[C@H](CC(C)C)NC(=O)[C@H](CO)NC(=O)[C@H](CC(C)C)NC(=O)[C@H](CC(C)C)NC(=O)[C@@H]1CCCN1C(=O)[C@H](CC(C)C)NC(=O)[C@H](CC(C)C)NC(=O)CN)C(N)=O gave an MIC of > 100 µM (broth microdilution).
CC(C)C[C@@H]1NC(=O)[C@H](CCN)NC(=O)CSC[C@@H](C(=O)N[C@@H](CCN)C(N)=O)NC(=O)[C@H](CC(C)C)NC(=O)[C@H](CC(C)C)NC(=O)[C@H](CC(C)C)NC(=O)[C@@H]2CSCC(=O)N[C@@H](CCN)C(=O)N[C@@H](CC(C)C)C(=O)N[C@@H](CCN)C(=O)N[C@@H](CCCCNC(=O)[C@H](CCN)NC1=O)C(=O)N[C@@H](CCN)C(=O)N[C@@H](CC(C)C)C(=O)N[C@@H](CC(C)C)C(=O)N2 has an MIC of 64 µg/mL (PAO1; 18 h).
CC[C@@H](C)[C@@H](NC(=O)[C@@H](C)NC(=O)[C@@H](CCCCN)NC(=O)[C@@H](CC(C)C)NC(=O)[C@@H](C)NC(=O)[C@H](NC(=O)[C@@H](Cc1c[nH]cn1)NC(=O)[C@@H](CC(C)C)NC(=O)[C@H](NC(=O)[C@H](NC(=O)[C@@H](CCCCN)NC(=O)[C@@H](CCCCN)NC(=O)[C@@H](C)NC(=O)[C@@H](CO)NC(=O)[C@@H](CCCCN)NC(=O)[C@@H](Cc1ccccc1)NC(=O)[C@H](NC(=O)[C@@H](CCCCN)NC(=O)[C@@H](CC(C)C)NC(=O)[C@@H](Cc1ccccc1)NC(=O)[C@@H](CO)NC(=O)[C@@H](CCCCN)NC(=O)[C@@H](Cc1c[nH]c2ccccc12)NC(=O)[C@@H](CCCCN)NC(C)=O)[C@H](C)O)[C@H](C)O)C(C)C)[C@H](C)O)C(=O)N[C@H](CO)C(=O)N[C@H](CO)C(N)=O gave an MIC of 5.2 µM (broth microdilution; PA14; 24 h, 37 °C).

A few entries again:
For CC(C)[C@H](NC(=O)[C@H](CCCCN)NC(=O)[C@H](CCCNC(=N)N)NC(=O)[C@@H](NC(=O)[C@H](C)NC(=O)[C@H](CC(N)=O)NC(=O)[C@H](CCCNC(=N)N)NC(=O)[C@@H](NC(=O)[C@H](CCCCN)NC(=O)[C@H](CCCCN)NC(=O)[C@@H](NC(=O)[C@@H](NC(=O)[C@H](CCCNC(=N)N)NC(=O)[C@H](CCCNC(=N)N)NC(=O)[C@H](Cc1c[nH]c2ccccc12)NC(=O)[C@H](Cc1c[nH]c2ccccc12)NC(=O)CN)[C@@H](C)O)C(C)C)C(C)C)C(C)C)C(=O)O, the MIC was 8 µg/mL (ATCC 27853; 18 h, 37 °C).
CCCCCCCC[C@H]1NC(=O)[C@H](CCN)NC(=O)[C@@H](NC(=O)[C@H](CCN)NC(=O)[C@@H](NC(=O)[C@H](CCN)NC(=O)c2ccc(-c3ccccc3)cc2)[C@@H](C)O)CCNC(=O)[C@H]([C@@H](C)O)NC(=O)[C@H](CCN)NC(=O)[C@H](CCN)NC(=O)[C@H](CC(C)C)NC1=O gave an MIC of 2 µg/mL (ATCC 27853, CaMHB; 18 h, 37 °C).
